Results collected from several papers.
Each line is one published result; not all experiments were run side by side.
T1: PDHA1/PDHB 30-390 E234A on β (Homo sapiens); chain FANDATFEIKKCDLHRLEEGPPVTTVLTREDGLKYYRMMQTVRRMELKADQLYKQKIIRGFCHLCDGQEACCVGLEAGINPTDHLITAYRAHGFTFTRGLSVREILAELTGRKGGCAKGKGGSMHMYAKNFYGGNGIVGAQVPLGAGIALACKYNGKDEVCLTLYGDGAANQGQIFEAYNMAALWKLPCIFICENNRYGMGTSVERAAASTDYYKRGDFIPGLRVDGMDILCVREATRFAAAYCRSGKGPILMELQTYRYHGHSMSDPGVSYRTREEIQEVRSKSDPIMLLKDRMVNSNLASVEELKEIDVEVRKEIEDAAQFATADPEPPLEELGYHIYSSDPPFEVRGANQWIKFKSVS; chain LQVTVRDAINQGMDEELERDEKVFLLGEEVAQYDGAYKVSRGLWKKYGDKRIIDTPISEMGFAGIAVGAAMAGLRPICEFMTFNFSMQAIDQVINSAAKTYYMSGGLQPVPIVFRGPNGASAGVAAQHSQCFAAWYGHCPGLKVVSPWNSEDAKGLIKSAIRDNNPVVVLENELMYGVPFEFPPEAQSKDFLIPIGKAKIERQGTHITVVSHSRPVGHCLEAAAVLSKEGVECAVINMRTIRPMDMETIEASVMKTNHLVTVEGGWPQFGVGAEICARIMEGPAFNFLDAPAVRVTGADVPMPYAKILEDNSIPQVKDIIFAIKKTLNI
B1: PDHB 31-359 (Homo sapiens, UniProt P11177); chain LQVTVRDAINQGMDEELERDEKVFLLGEEVAQYDGAYKVSRGLWKKYGDKRIIDTPISEMGFAGIAVGAAMAGLRPICEFMTFNFSMQAIDQVINSAAKTYYMSGGLQPVPIVFRGPNGASAGVAAQHSQCFAAWYGHCPGLKVVSPWNSEDAKGLIKSAIRDNNPVVVLENELMYGVPFEFPPEAQSKDFLIPIGKAKIERQGTHITVVSHSRPVGHCLEAAAVLSKEGVECEVINMRTIRPMDMETIEASVMKTNHLVTVEGGWPQFGVGAEICARIMEGPAFNFLDAPAVRVTGADVPMPYAKILEDNSIPQVKDIIFAIKKTLNI
B2: CBL 25-351 (Homo sapiens, UniProt P22681); sequence looked up; chain LIGLMKDAFQPHHHHHHHLSPHPPGTVDKKMVEKCWKLMDKVVRLCQNPKLALKNSPPYILDLLPDTYQHLRTILSRYEGKMETLGENEYFRVFMENLMKKTKQTISLFKEGKERMYEENSQPRRNLTKLSLIFSHMLAELKGIFPSGLFQGDTFRITKADAAEFWRKAFGEKTIVPWKSFRQALHEVHPISSGLEAMALKSTIDLTCNDYISVFEFDIFTRLFQPWSSLLRNWNSLAVTHPGYMAFLTYDEVKARLQKFIHKPGSYIFRLSCTRLGQWAIGYVTADGNILQTIPHNKPLFQALIDGFREGFYLFPDGRNQNPDLTG
B3: DLAT 214-416 (Homo sapiens, UniProt P10515); sequence looked up; chain SYPPHMQVLLPALSPTMTMGTVQRWEKKVGEKLSEGDLLAEIETDKATIGFEVQEEGYLAKILVPEGTRDVPLGTPLCIIVEKEADISAFADYRPTEVTDLKPQVPPPTPPPVAAVPPTPQPLAPTPSAPCPATPAGPKGRVFVSPLAKKLAVEKGIDLTQVKGTGPDGRITKKDIDSFVPSKVAPAPAAVVPPTGPGMAPVP
B4: Osm 24-206 (Mus musculus, UniProt P53347); chain ANRGCSNSSSQLLSQLQNQANLTGNTESLLEPYIRLQNLNTPDLRAACTQHSVAFPSEDTLRQLSKPHFLSTVYTTLDRVLYQLDALRQKFLKTPAFPKLDSARHNILGIRNNVFCMARLLNHSLEIPEPTQTDSGASRSTTTPDVFNTKIGSCGFLWGYHRFMGSVGRVFREWDDGSTRSRR
B5: UGT1A9 (Homo sapiens, UniProt O60656); chain GKLLVVPMDGSHWFTMRSVVEKLILRGHEVVVVMPEVSWQLGRSLNCTVKTYSTSYTLEDLDREFKAFAHAQWKAQVRSIYSLLMGSYNDIFDLFFSNCRSLFKDKKLVEYLKESSFDAVFLDPFDNCGLIVAKYFSLPSVVFARGILCHYLEEGAQCPAPLSYVPRILLGFSDAMTFKERVRNHIMHLEEHLLCHRFFKNALEIASEILQTPVTEYDLYSHTSIWLLRTDFVLDYPKPVMPNMIFIGGINCHQGKPLPMEFEAYINASGEHGIVVFSLGSMVSEIPEKKAMAIADALGKIPQTVLWRYTGTRPSNLANNTILVKWLPQNDLLGHPMTRAFITHAGSHGVYESICNGVPMVMMPLFGDQMDNAKRMETKGAGVTLNVLEMTSEDLENALKAVINDKSYKENIMRLSSLHKDRPVEPLDLAVFWVEFVMRHKGAPHLRPAAHDLTWYQYHSLDVIGFLLAVVLTVAFITFKCCAYGYRKCLGKKGRVKKAHKSKTH
B6: IL10 mature N18Y/N92Q/T100D/R104W (UniProt P22301); sequence looked up; chain SPGQGTQSENSCTHFPGYLPNMLRDLRDAFSRVKTFFQMKDQLDNLLLKESLLEDFKGYLGCQALSEMIQFYLEEVMPQAENQDPDIKAHVQSLGENLKDLRLWLRRCHRFLPCENKSKAVEQVKNAFNKLQEKGIYKAMSEFDIFINYIEAYMTMKIRN
B7: BNI5 C266F/C375S (Saccharomyces cerevisiae, UniProt P53890); AF647 label at C144; sequence looked up; chain MGLDQDKIKKRLSQIEIDINQMNQMIDENLQLVEPAEDEAVEDNVKDTGVVDAVKVAETALFSGNDGADSNPGDSAQVEEHKTAQVHIPTENEANKSTDDPSQLSVTQPFIAKEQITHTAIAIGDSYNSFVANSAGNEKAKDSCTENKEDGTVNIDQNRGEADVEIIENNDDEWEDEKSDVEEGRVDKGTEENSEIESFKSPMPQNNTLGGENKLDAELVLDKFSSANKDLDIQPQTIVVGGDNEYNHESSRLADQTPHDDNSENFPNRSGGSTPLDSQTKIFIPKKNSKEDGTNINHFNSDGDGQKKMANFETRRPTNPFRVISVSSNSNSRNGSRKSSLNKYDSPVSSPITSASELGSIAKLEKRHDYLSMKSIKLQKEIDYLNKMNAQGSLSMEDGKRLHRAVVKLQEYLDKKTKEKYEVGVLLSRHLRKQIDRGENGQFWIGTK
B8: MPP6 (Saccharomyces cerevisiae, UniProt P53725); sequence looked up; chain MSANNGVTGKLSSRVMNMKFMKFGKTDDEESSNSNTPSNINSDVEPIEQKGKLFGLDDSAWDLNSYKDDLKKISGKEKKKVKRVVYKKRPNLIISNVGYSELRKPEGVISGRKTFGDNSDDSGSRKRKFDEGEQNEDEKRDAKDKEFTGSQDDGEDEYDLDKLFKDSIKKKKTNHNGKNKNRNSKK
B9: fliG 116-335 (Thermotoga maritima, UniProt Q9WY63); sequence looked up; chain PVQLVNFLQSEHPQTIAVVLSYLDPPVAAQILGALPEELQTEVLKRIALLERTSPEVVKEIERNLEKKISGFVSRTFSKVGGIDTAAEIMNNLDRTTEKKIMDKLVQENPELADEIRRRMFVFEDILKLDDRSIQLVLREVDTRDLALALKGASDELKEKIFKNMSKRAAALLKDELEYMGPVRLKDVEEAQQKIINIIRRLEEAGEIVIARGGGEELIM
B10: mel-26 (Caenorhabditis elegans, UniProt Q94420); sequence looked up; chain MEPRIDGGVFIGGIGNSGNEMCSNGVPALGVSSQTEIKVEKVQHTWTVKNFSHCYQEYLENFVYLQRGDEQLTWSIKIYPKGNGENNKDFVFLCLNRVINNNVKAGKIGFKSQFKLRTAENKDIEMRIHPNPSHSDYVSYIKRDVLFPQIMPRDMIIVNVEIDVAVETITTTNEPIQFEPTNSEQQLIEDYQRLFSQELLCDFAINVNGKIIRAHKAVLAARSPVFNAMLTHQDTDEAKSSMMYINDMDYDVIYEMVYYIYCGRCNKDITDMATALLIAADKYRLEELKSHCEKYLVENINIENACSLLIIGDLYSAPKLRKRAVTYILARPKNVTGTPGWEDILKGHPNLITDIFSQIDRQSSTGATSSVSNLPGVPMDIPGITGNIVPPPSGL
Chain of UniProt Q9YGC1 (whole entry, looked up): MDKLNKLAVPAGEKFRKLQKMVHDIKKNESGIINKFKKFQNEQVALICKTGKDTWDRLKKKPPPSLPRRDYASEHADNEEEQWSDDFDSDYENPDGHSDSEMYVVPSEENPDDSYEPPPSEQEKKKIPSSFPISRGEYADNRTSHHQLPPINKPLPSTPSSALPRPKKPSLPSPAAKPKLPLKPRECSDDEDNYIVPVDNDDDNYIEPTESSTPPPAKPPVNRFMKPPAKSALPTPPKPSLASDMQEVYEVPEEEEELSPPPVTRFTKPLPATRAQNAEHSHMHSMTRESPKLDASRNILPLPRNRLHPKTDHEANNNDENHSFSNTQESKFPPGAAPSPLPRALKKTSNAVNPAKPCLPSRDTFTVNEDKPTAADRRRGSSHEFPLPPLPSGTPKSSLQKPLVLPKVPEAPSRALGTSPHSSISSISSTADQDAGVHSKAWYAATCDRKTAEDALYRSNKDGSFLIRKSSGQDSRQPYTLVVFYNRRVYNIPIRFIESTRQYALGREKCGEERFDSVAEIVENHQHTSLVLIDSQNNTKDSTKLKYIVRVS
Chain of UniProt P46020 (whole entry, looked up): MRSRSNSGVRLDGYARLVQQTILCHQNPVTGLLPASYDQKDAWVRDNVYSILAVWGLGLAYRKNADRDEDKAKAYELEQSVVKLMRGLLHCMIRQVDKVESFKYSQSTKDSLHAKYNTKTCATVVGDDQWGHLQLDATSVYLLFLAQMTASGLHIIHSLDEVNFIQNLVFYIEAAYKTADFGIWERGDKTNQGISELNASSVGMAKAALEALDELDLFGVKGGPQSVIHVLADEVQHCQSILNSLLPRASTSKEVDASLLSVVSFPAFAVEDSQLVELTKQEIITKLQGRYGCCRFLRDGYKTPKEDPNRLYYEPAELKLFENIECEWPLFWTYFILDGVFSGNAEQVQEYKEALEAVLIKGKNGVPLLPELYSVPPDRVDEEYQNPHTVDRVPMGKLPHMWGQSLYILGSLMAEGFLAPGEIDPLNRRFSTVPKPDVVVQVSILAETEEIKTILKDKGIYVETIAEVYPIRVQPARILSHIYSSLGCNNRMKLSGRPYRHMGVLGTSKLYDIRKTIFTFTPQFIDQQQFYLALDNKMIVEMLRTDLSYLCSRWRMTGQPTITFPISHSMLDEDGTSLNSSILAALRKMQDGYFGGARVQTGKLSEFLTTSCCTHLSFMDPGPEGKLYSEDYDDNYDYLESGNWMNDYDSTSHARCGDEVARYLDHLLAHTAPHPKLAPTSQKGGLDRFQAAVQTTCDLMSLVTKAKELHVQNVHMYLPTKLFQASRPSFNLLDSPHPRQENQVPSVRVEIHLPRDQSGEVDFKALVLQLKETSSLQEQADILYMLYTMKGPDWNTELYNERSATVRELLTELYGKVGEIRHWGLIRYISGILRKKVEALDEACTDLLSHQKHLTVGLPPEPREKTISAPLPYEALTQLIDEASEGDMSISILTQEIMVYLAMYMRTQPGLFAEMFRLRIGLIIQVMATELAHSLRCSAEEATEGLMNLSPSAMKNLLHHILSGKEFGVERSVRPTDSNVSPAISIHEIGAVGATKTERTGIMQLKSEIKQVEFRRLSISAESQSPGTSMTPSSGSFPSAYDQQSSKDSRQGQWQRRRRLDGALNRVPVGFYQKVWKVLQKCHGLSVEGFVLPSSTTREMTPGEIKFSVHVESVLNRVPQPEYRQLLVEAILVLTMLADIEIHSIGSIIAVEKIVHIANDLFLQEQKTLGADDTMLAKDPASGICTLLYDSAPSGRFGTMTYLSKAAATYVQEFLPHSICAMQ
Chain of UniProt P11021 (whole entry, looked up): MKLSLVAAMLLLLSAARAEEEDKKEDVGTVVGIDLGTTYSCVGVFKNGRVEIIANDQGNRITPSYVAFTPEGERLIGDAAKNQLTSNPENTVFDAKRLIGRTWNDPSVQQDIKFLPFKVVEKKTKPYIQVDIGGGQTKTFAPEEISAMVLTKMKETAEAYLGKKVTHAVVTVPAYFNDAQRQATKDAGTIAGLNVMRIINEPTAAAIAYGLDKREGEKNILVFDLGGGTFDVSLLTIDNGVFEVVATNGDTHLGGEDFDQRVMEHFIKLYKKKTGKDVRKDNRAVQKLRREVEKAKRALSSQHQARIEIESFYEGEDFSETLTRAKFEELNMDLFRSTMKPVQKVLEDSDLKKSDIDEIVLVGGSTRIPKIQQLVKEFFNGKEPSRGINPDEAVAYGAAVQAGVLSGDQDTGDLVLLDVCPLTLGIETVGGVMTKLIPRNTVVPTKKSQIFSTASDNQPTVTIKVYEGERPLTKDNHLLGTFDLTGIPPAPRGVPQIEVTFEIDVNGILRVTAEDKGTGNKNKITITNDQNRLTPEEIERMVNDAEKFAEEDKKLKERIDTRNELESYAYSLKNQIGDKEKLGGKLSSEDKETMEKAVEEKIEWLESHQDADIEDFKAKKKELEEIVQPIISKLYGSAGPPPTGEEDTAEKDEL
Chain of UniProt Q9UBS4 (whole entry, looked up): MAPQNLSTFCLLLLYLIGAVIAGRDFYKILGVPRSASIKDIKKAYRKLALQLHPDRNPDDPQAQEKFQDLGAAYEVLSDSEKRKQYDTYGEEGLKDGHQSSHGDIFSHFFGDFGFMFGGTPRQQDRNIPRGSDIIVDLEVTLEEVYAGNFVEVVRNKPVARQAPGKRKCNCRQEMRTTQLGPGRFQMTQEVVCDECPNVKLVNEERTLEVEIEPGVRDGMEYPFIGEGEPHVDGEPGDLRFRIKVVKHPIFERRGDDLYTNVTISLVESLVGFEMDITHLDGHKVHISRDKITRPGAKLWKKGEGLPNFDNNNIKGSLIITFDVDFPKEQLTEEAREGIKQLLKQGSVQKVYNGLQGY
Chain of UniProt Q08334 (whole entry, unmodified, looked up): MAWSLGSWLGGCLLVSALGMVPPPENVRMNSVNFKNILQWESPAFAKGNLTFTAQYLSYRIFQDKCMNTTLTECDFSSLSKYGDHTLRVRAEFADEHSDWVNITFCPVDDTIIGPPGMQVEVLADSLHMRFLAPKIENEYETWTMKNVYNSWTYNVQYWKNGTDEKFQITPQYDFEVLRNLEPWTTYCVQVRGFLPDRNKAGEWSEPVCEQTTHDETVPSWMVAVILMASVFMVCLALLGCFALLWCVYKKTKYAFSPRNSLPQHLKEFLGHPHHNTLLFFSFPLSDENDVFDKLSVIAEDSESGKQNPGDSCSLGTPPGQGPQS
Chain of UniProt P11217 (whole entry, looked up): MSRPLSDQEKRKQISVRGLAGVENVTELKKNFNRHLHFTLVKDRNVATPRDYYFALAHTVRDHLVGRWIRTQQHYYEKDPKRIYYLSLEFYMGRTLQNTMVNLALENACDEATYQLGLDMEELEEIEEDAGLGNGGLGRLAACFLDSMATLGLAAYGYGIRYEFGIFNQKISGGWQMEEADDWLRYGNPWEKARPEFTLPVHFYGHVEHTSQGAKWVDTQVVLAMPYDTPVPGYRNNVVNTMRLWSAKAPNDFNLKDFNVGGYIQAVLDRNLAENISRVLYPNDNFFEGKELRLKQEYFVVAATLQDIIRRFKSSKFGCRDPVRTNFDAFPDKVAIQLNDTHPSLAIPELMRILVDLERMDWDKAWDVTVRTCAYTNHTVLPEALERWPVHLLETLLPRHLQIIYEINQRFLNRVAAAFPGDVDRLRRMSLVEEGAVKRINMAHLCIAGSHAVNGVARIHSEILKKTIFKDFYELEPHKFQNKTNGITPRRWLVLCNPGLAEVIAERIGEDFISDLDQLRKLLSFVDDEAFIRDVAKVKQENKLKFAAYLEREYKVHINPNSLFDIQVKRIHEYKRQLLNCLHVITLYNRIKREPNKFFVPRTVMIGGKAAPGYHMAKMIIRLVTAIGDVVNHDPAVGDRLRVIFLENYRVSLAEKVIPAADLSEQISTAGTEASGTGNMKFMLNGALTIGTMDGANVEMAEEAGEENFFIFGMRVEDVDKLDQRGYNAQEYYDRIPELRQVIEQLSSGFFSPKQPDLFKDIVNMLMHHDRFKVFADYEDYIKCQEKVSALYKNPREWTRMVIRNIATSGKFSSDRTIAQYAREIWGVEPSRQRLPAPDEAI
Chain of UniProt Q06904 (whole entry, looked up): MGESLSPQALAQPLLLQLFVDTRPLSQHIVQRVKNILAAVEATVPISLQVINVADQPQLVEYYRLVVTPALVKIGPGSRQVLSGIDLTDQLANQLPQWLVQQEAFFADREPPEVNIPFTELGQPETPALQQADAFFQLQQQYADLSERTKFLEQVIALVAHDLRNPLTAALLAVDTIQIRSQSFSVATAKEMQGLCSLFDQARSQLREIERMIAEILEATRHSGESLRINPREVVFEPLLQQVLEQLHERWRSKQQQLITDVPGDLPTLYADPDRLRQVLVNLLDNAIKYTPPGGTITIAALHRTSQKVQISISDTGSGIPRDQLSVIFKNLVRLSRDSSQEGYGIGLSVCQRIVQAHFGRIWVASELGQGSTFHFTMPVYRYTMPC
Chain of UniProt Q9WZE6 (whole entry, unmodified, looked up): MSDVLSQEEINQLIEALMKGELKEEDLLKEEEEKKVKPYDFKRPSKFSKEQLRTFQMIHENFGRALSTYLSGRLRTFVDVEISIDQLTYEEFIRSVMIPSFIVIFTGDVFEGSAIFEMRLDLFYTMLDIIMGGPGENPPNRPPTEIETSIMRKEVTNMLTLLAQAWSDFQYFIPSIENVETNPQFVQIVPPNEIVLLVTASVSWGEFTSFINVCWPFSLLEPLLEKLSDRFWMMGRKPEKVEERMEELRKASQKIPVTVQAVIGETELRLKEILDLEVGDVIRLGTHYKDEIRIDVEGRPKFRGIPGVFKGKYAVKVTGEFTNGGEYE

For `B1 (PDHB 31-359)`, binding read “binds” (PDHA1 E1p alpha subunit 30-390 S203A/S271A, pS264 (Homo sapiens, UniProt P08559); crystal structure; added: Mn-ThDP, Mg-ThDP or apo).
For `RAKMPRALDFSGHTHPVATFQPSRPESVNDLFLCPQKELTRGVRPTPR (IFNLR1 residues 260-307 (Homo sapiens))`, binding read “binds” (JAK1 31-577 (Homo sapiens, UniProt P23458); crystal structure; peptide).
For `B2 (CBL 25-351)`, binding read “binds” (BLNK, phosphotyrosine (Gallus gallus, UniProt Q9YGC1); pull-down; DT40, lysate; added: stimulation).
Under binding, `B3 (DLAT 214-416)` is recorded as “binds” (T1, PDHA1/PDHB 30-390 E234A on β (Homo sapiens); SPR).
Under binding, `B4 (Osm 24-206)` is recorded as “binds” (Osmr 24-738 (Mus musculus, UniProt O70458); cryo-EM).
Under binding, `HSPA5 (Homo sapiens, UniProt P11021)` is recorded as “binds” (HSP90B1 D149N (Homo sapiens, UniProt P14625); pull-down).
Under binding, `MGSNKSKNKDASQRRRSLLPETG (SRC 1-18 P8N (Homo sapiens, UniProt P12931))` is recorded as “binds” (SRC fragment, N-terminal TAMRA label (Homo sapiens); pull-down).
`DNAJB11 (Homo sapiens, UniProt Q9UBS4)` — result for binding: “binds” (HSP90B1 E103A (Homo sapiens, UniProt P14625); pull-down).
`B5 (UGT1A9)` has a Vmax of 0.000926 µmol/min/mg (O=c1cc(-c2cccc(O)c2)oc2ccccc12; steady-state kinetics; pH 7.4, 37 °C).
`B6` — result for binding: “binds” (IL10RB 20-220 N49Q/N68Q/N102Q/N161Q (Homo sapiens, UniProt Q08334); SEC).
`B7 (BNI5 C266F/C375S)` — result for binding: “binds” (Cdc11/Cdc12/Cdc3/Cdc10 hetero-octamer (Saccharomyces cerevisiae); negative-stain EM; KCl 45 mM, added: septins 50 nM).
`sasA (Synechococcus elongatus, UniProt Q06904)`: binding “binds” (KaiC S431E/T432A (Synechococcus elongatus, UniProt Q79PF4); fluorescence polarisation; phosphomimetic KaiC-EA).
Under binding, `B8 (MPP6)` is recorded as “binds” (SKI6/RRP45/RRP42/MTR3/RRP46/RRP43/CSL4/RRP4/RRP40 Exo9 core (Saccharomyces cerevisiae); SEC).
`loqs (Drosophila melanogaster, UniProt Q9VJY9-4)`: binding “binds” (Dcr-2 G31R (Drosophila melanogaster, UniProt A1ZAW0); pull-down).
`PYGM (Homo sapiens, UniProt P11217)`: binding “binds” (PHKA1, phosphorylated incl. pS1018 (Homo sapiens, UniProt P46020); cross-linking).
`B9 (fliG 116-335)` — result for binding: “binds” (fliM 1-249 S167C, MTSSL spin label at C167 (Thermotoga maritima, UniProt Q9WZE6); DEER).
Under binding, `RRKAFLHWYTGEGMDEMEFTEAESNMNDLVSEYQQYQDATADEQGEFEEEEGEDEA (TUBB2B 390-445 (Homo sapiens, UniProt Q9BVA1); sequence looked up)` is recorded as “binds” (MYO10 MyTH4-FERM 1486-2058 del1872-1891 (Homo sapiens, UniProt Q9HD67); pull-down; peptide).
`B10 (mel-26)` — result for binding: “binds” (mei-1, phosphorylated by MBK-2 (Caenorhabditis elegans, UniProt P34808); far-Western; 4 °C, denatured).

Excerpt of the above:
For `B1 (PDHB 31-359)`, binding read “binds” (PDHA1 E1p alpha subunit 30-390 S203A/S271A, pS264 (Homo sapiens, UniProt P08559); crystal structure; added: Mn-ThDP, Mg-ThDP or apo).
Under binding, `B4 (Osm 24-206)` is recorded as “binds” (Osmr 24-738 (Mus musculus, UniProt O70458); cryo-EM).
